{"data": "Results pooled from the literature", "target": "Phosphatidylinositol 4-phosphate 5-kinase type-1 gamma (PIP5K1C, Homo sapiens, UniProt O60331)", "note": "Compare with care: the assays were run in different laboratories.", "UniProt O60331, sequence (whole entry, looked up)": "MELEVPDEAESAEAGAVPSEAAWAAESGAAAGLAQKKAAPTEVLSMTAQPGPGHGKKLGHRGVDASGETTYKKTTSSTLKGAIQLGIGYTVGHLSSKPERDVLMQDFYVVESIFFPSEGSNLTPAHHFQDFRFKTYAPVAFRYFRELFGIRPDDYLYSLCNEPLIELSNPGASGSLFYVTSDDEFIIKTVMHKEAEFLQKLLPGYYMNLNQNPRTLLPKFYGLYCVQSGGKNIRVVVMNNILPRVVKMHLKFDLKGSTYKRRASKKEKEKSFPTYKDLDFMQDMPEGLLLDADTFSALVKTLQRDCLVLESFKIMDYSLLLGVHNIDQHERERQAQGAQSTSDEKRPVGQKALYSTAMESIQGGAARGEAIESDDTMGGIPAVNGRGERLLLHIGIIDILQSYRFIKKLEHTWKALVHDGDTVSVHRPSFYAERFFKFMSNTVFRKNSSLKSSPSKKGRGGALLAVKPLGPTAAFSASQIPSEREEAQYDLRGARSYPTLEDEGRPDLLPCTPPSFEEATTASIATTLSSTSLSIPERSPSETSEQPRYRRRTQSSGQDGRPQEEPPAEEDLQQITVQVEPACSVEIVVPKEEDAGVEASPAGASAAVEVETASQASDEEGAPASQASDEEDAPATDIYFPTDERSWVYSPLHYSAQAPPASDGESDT"}
{"Structure (SMILES)": "C1=C/COCc2cc(ccc2OCCN2CCCC2)Nc2nccc(n2)-c2cccc(c2)COC/1", "setting": "concentration not given", "measurement": "percent of control", "value": "60%"}
{"Structure (SMILES)": "COc1cc(F)ccc1-c1ncnc(Nc2cccc(C[S@](C)(=N)=O)c2)n1", "test": "kinase activity", "setting": "10 µM, together with: 10 µM ATP", "measurement": "remaining activity", "value": "101%"}
{"Structure (SMILES)": "CC(C)C(=O)Nc1n[nH]c2cc(-c3cccc(NS(=O)(=O)C4CC4)c3)ccc12", "test": "ADP-Glo", "setting": "13.7 nM, together with: 10 µM ATP", "measurement": "ADP produced", "value": "2.86 µM"}
{"Structure (SMILES)": "Cc1nc(NC(=O)N2CCC[C@H]2C(N)=O)sc1-c1ccnc(C(C)(C)C(F)(F)F)c1", "test": "KINOMEscan", "setting": "10 µM", "measurement": "remaining binding", "value": "100%"}
{"Structure (SMILES)": "CC(=O)Nc1nc(C)c(-c2ccc(Cl)c(S(=O)(=O)NCCO)c2)s1", "test": "kinase activity, ADP-Glo", "measurement": "Hill slope", "value": -1.44}
{"Structure (SMILES)": "C=CC(=O)N1CCC(COCC(=O)N2CCN(c3nc(-c4cnc(N)nc4C(F)F)nc(N4CCOC[C@@H]4C)n3)CC2)CC1", "test": "KINOMEscan", "setting": "1 µM", "scale": "baseline: DMSO control", "measurement": "remaining binding", "value": "95%"}
{"Structure (SMILES)": "O=C(NC1CCC1)c1ccc2nc(-c3cccc(NS(=O)(=O)NCCN4CCCCC4)c3)cn2c1", "test": "enzyme activity", "setting": "10 µM", "measurement": "remaining activity", "value": "51%"}
{"Structure (SMILES)": "C[C@@H](c1ccc(-n2cnc3c(N)ncnc32)cc1)N1CCc2nn(C)c(Cc3ccccc3)c2C1=O", "test": "KINOMEscan", "setting": "0.1 µM", "scale": "baseline: DMSO control", "measurement": "remaining binding", "value": "78%"}
{"Structure (SMILES)": "Nc1ncc2c(n1)-c1c([nH]c3ccc(-c4ccc(F)cc4)cc13)CCC2", "test": "DiscoverX scanMAX", "setting": "1 µM", "scale": "baseline: untreated control", "measurement": "remaining binding", "value": "0%"}
{"note": "Excerpt of the above:"}
{"Structure (SMILES)": "CC(C)C(=O)Nc1n[nH]c2cc(-c3cccc(NS(=O)(=O)C4CC4)c3)ccc12", "test": "ADP-Glo", "setting": "13.7 nM, together with: 10 µM ATP", "measurement": "ADP produced", "value": "2.86 µM"}
